Published values of several laboratories.
Protocols differ between the studies behind these lines. Numbers after ± are the reported error.
nanI: Sialidase (nanI, Clostridium perfringens, UniProt A0A0H2YQR1)
HLA class I histocompatibility antigen, B alpha chain: HLA class I histocompatibility antigen, B alpha chain (Homo sapiens, UniProt P01889)
HLA class I histocompatibility antigen, B alpha chain allele B*44:03: HLA class I histocompatibility antigen, B alpha chain, allele B*44:03 (Homo sapiens, UniProt P01889)
Polyprotein P1234 nsP2 protease domain: Polyprotein P1234, nsP2 protease domain (Chikungunya virus, UniProt Q5XXP4)
Sequence of UniProt Q5XXP4 (whole entry, looked up): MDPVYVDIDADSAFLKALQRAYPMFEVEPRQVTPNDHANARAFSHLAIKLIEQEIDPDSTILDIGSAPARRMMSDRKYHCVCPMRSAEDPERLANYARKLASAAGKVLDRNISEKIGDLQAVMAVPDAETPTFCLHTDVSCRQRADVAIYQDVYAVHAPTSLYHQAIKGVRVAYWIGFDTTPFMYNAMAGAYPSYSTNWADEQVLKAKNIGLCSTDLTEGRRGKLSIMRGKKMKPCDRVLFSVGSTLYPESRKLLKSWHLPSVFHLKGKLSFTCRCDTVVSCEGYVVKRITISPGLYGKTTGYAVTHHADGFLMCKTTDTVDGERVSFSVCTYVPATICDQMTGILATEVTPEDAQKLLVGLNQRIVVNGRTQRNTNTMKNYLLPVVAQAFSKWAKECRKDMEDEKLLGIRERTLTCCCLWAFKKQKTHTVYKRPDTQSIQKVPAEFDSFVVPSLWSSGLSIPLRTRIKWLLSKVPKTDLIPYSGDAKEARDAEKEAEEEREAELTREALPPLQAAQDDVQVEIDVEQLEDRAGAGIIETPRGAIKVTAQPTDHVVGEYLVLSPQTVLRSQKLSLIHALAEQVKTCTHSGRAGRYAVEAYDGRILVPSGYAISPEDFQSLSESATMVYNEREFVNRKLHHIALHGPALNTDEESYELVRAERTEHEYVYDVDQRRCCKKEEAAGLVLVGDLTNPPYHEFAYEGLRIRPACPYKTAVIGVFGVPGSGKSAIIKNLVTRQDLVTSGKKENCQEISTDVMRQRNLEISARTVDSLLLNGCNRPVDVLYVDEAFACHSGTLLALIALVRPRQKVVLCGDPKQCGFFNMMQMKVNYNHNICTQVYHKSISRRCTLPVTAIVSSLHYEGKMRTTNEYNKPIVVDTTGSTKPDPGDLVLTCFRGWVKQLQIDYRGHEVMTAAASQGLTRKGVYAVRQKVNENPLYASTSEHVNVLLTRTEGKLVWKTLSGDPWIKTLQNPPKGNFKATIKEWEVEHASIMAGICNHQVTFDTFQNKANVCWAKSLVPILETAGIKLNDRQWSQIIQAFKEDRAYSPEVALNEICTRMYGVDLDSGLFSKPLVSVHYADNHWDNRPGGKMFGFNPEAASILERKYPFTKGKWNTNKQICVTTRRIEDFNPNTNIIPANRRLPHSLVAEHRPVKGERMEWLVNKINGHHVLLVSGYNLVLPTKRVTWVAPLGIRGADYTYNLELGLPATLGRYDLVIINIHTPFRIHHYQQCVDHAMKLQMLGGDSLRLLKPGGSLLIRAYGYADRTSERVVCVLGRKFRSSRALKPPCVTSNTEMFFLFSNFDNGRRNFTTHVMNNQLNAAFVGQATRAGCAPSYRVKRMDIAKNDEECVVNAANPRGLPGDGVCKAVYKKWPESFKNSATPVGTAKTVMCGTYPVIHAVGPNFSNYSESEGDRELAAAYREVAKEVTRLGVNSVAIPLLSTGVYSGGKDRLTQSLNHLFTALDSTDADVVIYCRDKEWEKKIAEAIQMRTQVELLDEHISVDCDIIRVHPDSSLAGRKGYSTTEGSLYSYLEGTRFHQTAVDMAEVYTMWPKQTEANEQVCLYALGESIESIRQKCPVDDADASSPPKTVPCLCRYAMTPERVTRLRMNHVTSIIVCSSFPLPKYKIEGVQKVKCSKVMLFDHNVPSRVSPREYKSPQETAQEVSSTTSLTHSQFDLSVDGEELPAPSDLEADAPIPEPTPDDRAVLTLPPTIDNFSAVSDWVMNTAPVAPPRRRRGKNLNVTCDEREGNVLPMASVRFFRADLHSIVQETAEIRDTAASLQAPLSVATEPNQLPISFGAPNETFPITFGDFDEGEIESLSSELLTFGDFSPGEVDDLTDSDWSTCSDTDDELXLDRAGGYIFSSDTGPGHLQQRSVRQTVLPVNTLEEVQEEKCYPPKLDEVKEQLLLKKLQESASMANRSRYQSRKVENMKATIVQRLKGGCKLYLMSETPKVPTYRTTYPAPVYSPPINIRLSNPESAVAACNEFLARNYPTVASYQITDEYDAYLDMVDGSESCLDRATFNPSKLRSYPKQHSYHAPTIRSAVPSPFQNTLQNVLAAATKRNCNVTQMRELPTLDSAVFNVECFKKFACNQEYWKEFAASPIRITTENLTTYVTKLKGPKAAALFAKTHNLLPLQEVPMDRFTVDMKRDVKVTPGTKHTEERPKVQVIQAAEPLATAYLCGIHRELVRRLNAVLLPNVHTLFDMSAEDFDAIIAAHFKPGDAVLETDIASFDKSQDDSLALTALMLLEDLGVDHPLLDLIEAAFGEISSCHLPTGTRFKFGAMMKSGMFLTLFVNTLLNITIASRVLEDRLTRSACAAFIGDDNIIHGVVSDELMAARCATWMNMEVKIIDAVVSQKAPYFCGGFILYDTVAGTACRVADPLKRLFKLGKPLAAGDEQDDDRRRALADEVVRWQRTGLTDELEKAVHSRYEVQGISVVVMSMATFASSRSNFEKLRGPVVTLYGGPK
HLA class I histocompatibility antigen, A alpha chain allele A*30:02: HLA class I histocompatibility antigen, A alpha chain, allele A*30:02 (Homo sapiens, UniProt P04439)
Sequence of UniProt Q8JUX6 (whole entry, looked up): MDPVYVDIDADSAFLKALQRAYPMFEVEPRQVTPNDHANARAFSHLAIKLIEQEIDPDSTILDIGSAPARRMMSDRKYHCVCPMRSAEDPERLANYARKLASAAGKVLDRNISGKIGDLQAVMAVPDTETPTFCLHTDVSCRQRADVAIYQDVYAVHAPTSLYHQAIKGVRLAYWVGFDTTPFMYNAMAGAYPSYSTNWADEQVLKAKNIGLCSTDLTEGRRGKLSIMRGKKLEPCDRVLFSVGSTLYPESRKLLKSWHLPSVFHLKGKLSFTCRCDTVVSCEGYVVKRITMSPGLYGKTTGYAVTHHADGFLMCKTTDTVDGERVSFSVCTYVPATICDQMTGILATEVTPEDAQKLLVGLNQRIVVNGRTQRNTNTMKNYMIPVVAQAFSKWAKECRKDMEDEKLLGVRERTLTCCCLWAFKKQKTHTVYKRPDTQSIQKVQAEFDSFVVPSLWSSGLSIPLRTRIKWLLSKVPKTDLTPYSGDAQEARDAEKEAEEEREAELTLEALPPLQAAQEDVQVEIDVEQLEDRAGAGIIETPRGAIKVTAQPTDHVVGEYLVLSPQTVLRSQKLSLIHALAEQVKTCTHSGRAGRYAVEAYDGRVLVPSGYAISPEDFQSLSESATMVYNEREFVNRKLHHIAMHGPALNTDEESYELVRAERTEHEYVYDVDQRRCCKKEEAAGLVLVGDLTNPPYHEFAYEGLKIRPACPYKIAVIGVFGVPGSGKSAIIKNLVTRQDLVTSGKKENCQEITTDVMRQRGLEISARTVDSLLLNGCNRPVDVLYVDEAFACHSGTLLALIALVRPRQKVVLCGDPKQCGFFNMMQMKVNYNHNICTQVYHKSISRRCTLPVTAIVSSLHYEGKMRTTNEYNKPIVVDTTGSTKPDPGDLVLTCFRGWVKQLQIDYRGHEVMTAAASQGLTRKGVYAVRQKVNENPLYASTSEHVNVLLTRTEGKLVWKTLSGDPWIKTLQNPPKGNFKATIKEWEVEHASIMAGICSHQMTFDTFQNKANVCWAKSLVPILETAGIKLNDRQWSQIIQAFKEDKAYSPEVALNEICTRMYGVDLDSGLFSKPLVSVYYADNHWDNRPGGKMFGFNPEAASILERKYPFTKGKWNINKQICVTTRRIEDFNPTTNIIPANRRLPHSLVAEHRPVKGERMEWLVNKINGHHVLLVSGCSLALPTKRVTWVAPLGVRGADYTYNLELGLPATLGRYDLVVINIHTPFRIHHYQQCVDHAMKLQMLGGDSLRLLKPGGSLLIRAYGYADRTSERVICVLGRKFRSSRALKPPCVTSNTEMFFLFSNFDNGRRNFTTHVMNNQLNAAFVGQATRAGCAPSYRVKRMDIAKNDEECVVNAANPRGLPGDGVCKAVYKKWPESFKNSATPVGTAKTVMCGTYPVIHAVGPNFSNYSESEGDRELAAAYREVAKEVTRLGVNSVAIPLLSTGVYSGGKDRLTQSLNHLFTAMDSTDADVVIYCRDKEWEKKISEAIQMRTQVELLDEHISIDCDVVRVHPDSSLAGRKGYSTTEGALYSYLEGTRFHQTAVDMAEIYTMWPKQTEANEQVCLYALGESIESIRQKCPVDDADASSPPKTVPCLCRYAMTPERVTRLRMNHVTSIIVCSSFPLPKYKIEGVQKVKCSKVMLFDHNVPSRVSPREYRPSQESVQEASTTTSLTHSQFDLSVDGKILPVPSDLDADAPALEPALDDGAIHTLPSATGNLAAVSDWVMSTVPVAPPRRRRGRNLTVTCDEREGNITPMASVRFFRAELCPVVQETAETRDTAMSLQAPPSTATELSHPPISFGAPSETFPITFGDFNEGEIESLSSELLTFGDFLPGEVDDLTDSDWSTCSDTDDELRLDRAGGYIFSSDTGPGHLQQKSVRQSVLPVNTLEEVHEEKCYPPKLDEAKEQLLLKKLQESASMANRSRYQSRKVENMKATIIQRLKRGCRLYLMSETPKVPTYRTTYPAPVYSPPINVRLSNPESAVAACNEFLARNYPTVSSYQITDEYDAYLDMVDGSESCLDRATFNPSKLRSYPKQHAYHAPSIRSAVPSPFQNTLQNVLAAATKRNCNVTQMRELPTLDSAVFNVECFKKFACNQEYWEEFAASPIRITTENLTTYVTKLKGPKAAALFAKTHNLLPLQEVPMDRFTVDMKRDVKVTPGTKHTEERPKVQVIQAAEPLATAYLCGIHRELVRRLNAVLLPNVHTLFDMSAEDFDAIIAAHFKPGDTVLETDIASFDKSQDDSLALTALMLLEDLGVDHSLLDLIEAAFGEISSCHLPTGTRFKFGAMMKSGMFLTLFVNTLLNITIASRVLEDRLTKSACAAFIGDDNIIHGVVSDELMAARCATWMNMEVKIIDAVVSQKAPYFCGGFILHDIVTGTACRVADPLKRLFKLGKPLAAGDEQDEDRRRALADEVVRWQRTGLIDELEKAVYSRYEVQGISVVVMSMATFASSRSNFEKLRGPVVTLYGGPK
Sequence of UniProt A0A7H0DNC1 (whole entry, looked up): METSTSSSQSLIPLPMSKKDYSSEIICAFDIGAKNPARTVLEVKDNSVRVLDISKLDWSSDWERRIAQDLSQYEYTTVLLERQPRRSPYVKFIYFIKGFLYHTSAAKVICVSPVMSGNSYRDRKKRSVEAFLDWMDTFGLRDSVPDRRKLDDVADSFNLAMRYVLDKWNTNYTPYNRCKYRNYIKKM

O=c1cc(-c2ccc(O)cc2)oc2cc(O)c(O)c(O)c12
IC50 (Replicase polyprotein 1ab, main protease (rep, Severe acute respiratory syndrome-related coronavirus, UniProt P0C6X7); enzyme activity, inhibitor): 16.4 µM

O=C(N1CCC2(CC1)C[C@H](CN1CCCCS1(=O)=O)CCO2)C1(c2cc(F)cc(F)c2)CCCC1
IC50 (Polyprotein P1234, nsP2 (Chikungunya virus, UniProt Q8JUX6); nsP2 ATPase activity, inhibitor, ADP-Glo): 0.79 µM

CCC(C(=O)Nc1ccccc1C)n1cccc2nc([S+]([O-])Cc3ccc(F)cc3)nc1-2 (stereo not shown)
IC50 (Replicase polyprotein 1ab, papain-like protease (rep, Middle East respiratory syndrome-related coronavirus, UniProt K9N7C7); enzyme activity, inhibitor): > 100 µM

O=C(O)C(=O)C[C@@H](O)[C@@H](O)[C@H](O)[C@H](O)CO
IC50 (Spike glycoprotein, with ACE2 (Severe acute respiratory syndrome coronavirus 2, UniProt P0DTC2); binding to human ACE2, inhibitor; SARS-CoV-2): 0.00095 µM

[N-]=[N+]=Nc1ccsc1C(=O)O
IC50 (cpsA (Mycobacterium tuberculosis, UniProt O06347); concentration not given): 410 µM

COc1cc(Nc2ncc(F)c(Nc3ccc4c(n3)NC(=O)C(C)(C)O4)n2)cc(OC)c1OC
IC50 (strychnine-sensitive glycine receptor; binding): > 10 µM

CC(C)(C)NC(=O)N[C@H]1[C@H]([C@H](O)[C@H](O)CO)OC(C(=O)O)=C[C@@H]1O
IC50 (nanI; enzyme activity, inhibitor): > 500 µM

CC[C@H](C)[C@H](NC(=O)[C@H](C)NC(=O)[C@H](Cc1ccc(O)cc1)NC(=O)[C@H](CCCNC(=N)N)NC(=O)[C@@H](NC(=O)[C@H](C)NC(=O)[C@@H]1CCCN1C(=O)[C@H](CCCCN)NC(=O)[C@@H]1CCCN1C(=O)[C@@H](N)CCCCN)C(C)C)C(=O)O
IC50 (HLA class I histocompatibility antigen, B alpha chain; biochemical): 0.015 µM

CCCCCC(=O)N[C@H]1[C@H]([C@H](O)[C@H](O)CO)OC(C(=O)O)=C[C@@H]1O
IC50 (nanI; enzyme activity, inhibitor): > 500 µM

Cc1ccc(NC(=O)c2c(Nc3ccccc3)[nH]c(=O)n(O)c2=O)cc1
IC50 (Resolvase OPG149 (OPG149, Monkeypox virus, UniProt A0A7H0DNC1)): 0.95 µM

CC[C@H](C)[C@H](NC(=O)[C@H](CCCCN)NC(=O)[C@H](CC(C)C)NC(=O)[C@@H](N)Cc1c[nH]c2ccccc12)C(=O)N[C@@H](CCCCN)C(=O)N[C@@H](CCCNC(=N)N)C(=O)N[C@@H](CC(=O)O)C(=O)N[C@@H](Cc1ccc(O)cc1)C(=O)N[C@@H](CC(C)C)C(=O)O
IC50 (HLA class I histocompatibility antigen, B alpha chain, allele B*08:01 (Homo sapiens, UniProt P01889); biochemical): 0.00077 µM

CCC(C(=O)Nc1cnn(C)c1)n1cccc2nc(SCc3ccc(F)cc3)nc1-2 (stereo not shown)
IC50 (Replicase polyprotein 1ab, papain-like protease (rep, Middle East respiratory syndrome-related coronavirus, UniProt K9N7C7); enzyme activity, inhibitor): > 100 µM

CC(C)[C@H](NC(=O)[C@H](CCCNC(=N)N)NC(=O)[C@H](CCCNC(=N)N)NC(=O)[C@H](Cc1ccccc1)NC(=O)[C@H](CCC(=O)O)NC(=O)[C@@H](N)Cc1ccc(O)cc1)C(=O)N[C@@H](CCCCN)C(=O)N[C@@H](CO)C(=O)N[C@@H](Cc1ccc(O)cc1)C(=O)O
IC50 (HLA class I histocompatibility antigen, B alpha chain allele B*44:03; biochemical): 0.014 µM

CCC(C(=O)Nc1cc(NC2CCNC2)ccc1C)n1cc(Br)cc2nc(SCc3ccc(F)cc3)nc1-2 (stereo not shown)
IC50 (Replicase polyprotein 1ab, papain-like protease (rep, Middle East respiratory syndrome-related coronavirus, UniProt K9N7C7); enzyme activity, inhibitor): > 100 µM

COc1ccc(-c2cccc(Nc3cc(=O)n(O)c(=O)n3C)c2)cc1
IC50 (Resolvase OPG149 (OPG149, Vaccinia virus, UniProt Q80HV3)): 0.193 µM

CCC(CC)O[C@@H]1C=C(C(=O)O)C[C@H](N)[C@H]1NC(C)=O
IC50 (neuraminidase (Influenza A virus, UniProt G1FHY4)): 0.00188 µM

CCC(C(=O)Nc1cc(NC2COC2)ccc1C)n1cc(F)cc2nc(SCc3ccc(F)cc3)nc1-2 (stereo not shown)
IC50 (Replicase polyprotein 1ab, papain-like protease (rep, Middle East respiratory syndrome-related coronavirus, UniProt K9N7C7); enzyme activity, inhibitor): > 100 µM

CS(=O)(=O)C=CCNC(=O)C1CCN(c2ccc(F)cc2)C1=O (stereo not shown)
IC50 (Polyprotein P1234 nsP2 protease domain; protease activity, inhibitor, FRET; 90 min, 30 min preincubation): 30 ± 5 µM

CC[C@H](C)[C@H](NC(=O)[C@H](CC(=O)O)NC(=O)[C@H](CCCCN)NC(=O)[C@H](CC(C)C)NC(=O)[C@H](CC(N)=O)NC(=O)[C@@H](NC(=O)[C@H](Cc1ccc(O)cc1)NC(=O)[C@H](CO)NC(=O)[C@H](CCC(N)=O)NC(=O)[C@H](CCC(=O)O)NC(=O)[C@H](CC(C)C)NC(=O)[C@H](CCCCN)NC(=O)[C@H](CCCCN)NC(=O)[C@@H](NC(=O)[C@H](C)NC(=O)[C@H](CCC(=O)O)NC(=O)[C@H](CCC(=O)O)NC(=O)[C@H](CC(C)C)NC(=O)[C@H](CCCCN)NC(=O)[C@H](CCCCN)NC(=O)[C@H](CCSC)NC(=O)[C@H](CCC(=O)O)NC(=O)[C@H](CC(=O)O)NC(=O)[C@H](CCC(N)=O)NC(=O)[C@H](CC(C)C)NC(=O)[C@H](CC(=O)O)NC(=O)[C@H](CC(C)C)NC(=O)[C@H](Cc1ccccc1)NC(=O)[C@@H](NC(=O)[C@@H](NC(=O)[C@H](CC(N)=O)NC(=O)[C@@H](NC(=O)[C@H](Cc1ccc(O)cc1)NC(=O)[C@H](CC(=O)O)NC(=O)[C@H](CC(C)C)NC(=O)[C@@H](N)CO)[C@@H](C)CC)C(C)C)[C@@H](C)O)[C@@H](C)CC)[C@@H](C)CC)C(=O)O
IC50 (Spike glycoprotein (S, Human coronavirus 229E, UniProt P15423)): 0.3 ± 0.05 µM

O=C(O)C1=C[C@H](O)[C@@H](NCc2ccc(-c3ccccc3)cc2)[C@H]([C@H](O)[C@H](O)CO)O1
IC50 (nanI; enzyme activity, inhibitor): 21 µM

CCCCCCCCCCCCCCCC(=O)C(F)(F)P(=O)(O)O
IC50 (Glycerol-3-phosphate acyltransferase 3 (plsY3, Bacillus anthracis, UniProt Q81Y92); inhibitor): 50 µM

C=CS(=O)(=O)c1ccc(C#N)cn1
IC50 (Polyprotein P1234 nsP2 protease domain; protease activity, inhibitor, FRET; 90 min, 30 min preincubation): 24 ± 4 µM

C[C@@H](O)[C@H](NC(=O)[C@H](CC(N)=O)NC(=O)[C@H](CC(N)=O)NC(=O)[C@@H](N)Cc1ccccc1)C(=O)N[C@@H](CCCCN)C(=O)N[C@@H](Cc1ccccc1)C(=O)N[C@@H](CC(=O)O)C(=O)N[C@@H](Cc1ccc(O)cc1)C(=O)N[C@@H](Cc1ccc(O)cc1)C(=O)O
IC50 (HLA class I histocompatibility antigen, A alpha chain allele A*30:02; biochemical): 1.48 µM

Cn1cnc(Cn2c(=O)[nH]/c(=N\c3cc4cn(C)nc4cc3Cl)n(Cc3cc(F)c(F)cc3F)c2=O)n1
IC50 (Cytochrome P450 1A2 (CYP1A2, Homo sapiens, UniProt P05177); enzyme activity, inhibitor; human liver microsomes; 30 min preincubation, pH 7.4, preincubation with NADPH, together with: phenacetin 90 µM): > 100 µM

C=CC(=O)N1CC[C@H](CC(=O)O)C1
IC50 (Polyprotein P1234 nsP2 protease domain; protease activity, inhibitor, FRET; 90 min, 30 min preincubation): 130 ± 68 µM

CCC(CC)[C@H](NC(C)=O)[C@@H]1[C@H](O)[C@@H](C(=O)O)C[C@H]1N=C(N)N
IC50 (Neuraminidase (NA, Influenza A virus, UniProt Q9IGQ6); enzyme activity, inhibitor; swine influenza A virus, H1N1): 0.00034 ± 0.00016 µM

CCCC(C(=O)Nc1cc(NC2CNC2)ccc1C)n1cccc2nc(SCc3ccc(F)cc3)nc1-2 (stereo not shown)
IC50 (Replicase polyprotein 1ab, papain-like protease (rep, Severe acute respiratory syndrome-related coronavirus, UniProt P0C6X7); enzyme activity): 0.731 ± 0.153 µM

CSCC[C@H](NC(=O)[C@@H](NC(=O)[C@@H](NC(=O)[C@H](C)NC(=O)[C@H](Cc1ccc(O)cc1)NC(=O)[C@H](Cc1c[nH]cn1)NC(=O)[C@H](CCCNC(=N)N)NC(=O)[C@@H]1CCCN1C(=O)[C@@H](N)Cc1c[nH]cn1)[C@@H](C)O)C(C)C)C(=O)O
IC50 (HLA class I histocompatibility antigen, B alpha chain; biochemical): 0.00087 µM

CCCC(C(=O)Nc1cc(NC2CCNCC2)ccc1C)n1cccc2nc(SCc3ccc(F)cc3)nc1-2 (stereo not shown)
IC50 (Replicase polyprotein 1ab, papain-like protease (rep, Middle East respiratory syndrome-related coronavirus, UniProt K9N7C7); enzyme activity, inhibitor): > 100 µM

C=CS(=O)(=O)CCC(=O)Nc1cc2oc(=O)n(C)c2cc1F
IC50 (Polyprotein P1234 nsP2 protease domain; protease activity, inhibitor, FRET; 90 min, 30 min preincubation): 11 ± 2 µM

CCC(C(=O)Nc1cc(NC2CCNC2)ccc1C)n1cc(F)cc2nc(SCc3ccc(F)cc3)nc1-2 (stereo not shown)
IC50 (Replicase polyprotein 1ab, papain-like protease (rep, Middle East respiratory syndrome-related coronavirus, UniProt K9N7C7); enzyme activity, inhibitor): > 100 µM

C=CS(=O)(=O)CCC(=O)Nc1cc(OC)c2ncccc2c1
IC50 (Polyprotein P1234 nsP2 protease domain; protease activity, inhibitor, FRET; 90 min, 30 min preincubation): 8.4 ± 0.3 µM

CC[C@H](C)[C@H](NC(=O)[C@H](C)NC(=O)[C@H](CC(=O)O)NC(=O)[C@H](CC(N)=O)NC(=O)[C@H](CCC(=O)O)NC(=O)[C@@H](N)CC(C)C)C(=O)N[C@@H](CCCNC(=N)N)C(=O)N[C@H](C(=O)N[C@@H](Cc1ccc(O)cc1)C(=O)O)[C@@H](C)CC
IC50 (HLA class I histocompatibility antigen, B alpha chain allele B*44:03; biochemical): 0.02 µM

CCC(C(=O)Nc1ccccc1C)n1cc(F)cc2nc(SCc3ccc(F)cc3)nc1-2 (stereo not shown)
IC50 (Replicase polyprotein 1ab, papain-like protease (rep, Middle East respiratory syndrome-related coronavirus, UniProt K9N7C7); enzyme activity, inhibitor): > 100 µM

O=C(CCl)NC(=O)NCCc1cccs1
IC50 (Polyprotein P1234 nsP2 protease domain; enzyme activity, inhibitor, FRET; 90 min, 30 min preincubation): 18 ± 1 µM

CC(C)[C@H](N)C(=O)N[C@H](C(=O)N[C@@H](CC(=O)O)C(=O)N[C@H](C(=O)N[C@@H](CC(N)=O)C(=O)N[C@@H](CCCCN)C(=O)N[C@@H](Cc1ccccc1)C(=O)N[C@@H](C)C(=O)N[C@@H](Cc1c[nH]cn1)C(=O)N[C@@H](Cc1ccc(O)cc1)C(=O)O)[C@@H](C)O)[C@@H](C)O
IC50 (HLA class I histocompatibility antigen, A alpha chain allele A*30:02; biochemical): 0.545 µM

CC[C@H](C)[C@H](NC(=O)[C@H](CC(C)C)NC(=O)CNC(=O)[C@H](CCCNC(=N)N)NC(=O)[C@H](CC(C)C)NC(=O)[C@@H](NC(=O)[C@H](CCSC)NC(=O)[C@@H]1CCCN1C(=O)CN)C(C)C)C(=O)N[C@H](C(=O)O)[C@@H](C)O
IC50 (HLA class I histocompatibility antigen, B alpha chain; binding, competitor): 14.3 µM

A few entries again:
CC(C)[C@H](N)C(=O)N[C@H](C(=O)N[C@@H](CC(=O)O)C(=O)N[C@H](C(=O)N[C@@H](CC(N)=O)C(=O)N[C@@H](CCCCN)C(=O)N[C@@H](Cc1ccccc1)C(=O)N[C@@H](C)C(=O)N[C@@H](Cc1c[nH]cn1)C(=O)N[C@@H](Cc1ccc(O)cc1)C(=O)O)[C@@H](C)O)[C@@H](C)O
IC50 (HLA class I histocompatibility antigen, A alpha chain allele A*30:02; biochemical): 0.545 µM

CC[C@H](C)[C@H](NC(=O)[C@H](CC(C)C)NC(=O)CNC(=O)[C@H](CCCNC(=N)N)NC(=O)[C@H](CC(C)C)NC(=O)[C@@H](NC(=O)[C@H](CCSC)NC(=O)[C@@H]1CCCN1C(=O)CN)C(C)C)C(=O)N[C@H](C(=O)O)[C@@H](C)O
IC50 (HLA class I histocompatibility antigen, B alpha chain; binding, competitor): 14.3 µM

CSCC[C@H](NC(=O)[C@@H](NC(=O)[C@@H](NC(=O)[C@H](C)NC(=O)[C@H](Cc1ccc(O)cc1)NC(=O)[C@H](Cc1c[nH]cn1)NC(=O)[C@H](CCCNC(=N)N)NC(=O)[C@@H]1CCCN1C(=O)[C@@H](N)Cc1c[nH]cn1)[C@@H](C)O)C(C)C)C(=O)O
IC50 (HLA class I histocompatibility antigen, B alpha chain; biochemical): 0.00087 µM

C=CS(=O)(=O)c1ccc(C#N)cn1
IC50 (Polyprotein P1234 nsP2 protease domain; protease activity, inhibitor, FRET; 90 min, 30 min preincubation): 24 ± 4 µM

Cc1ccc(NC(=O)c2c(Nc3ccccc3)[nH]c(=O)n(O)c2=O)cc1
IC50 (Resolvase OPG149 (OPG149, Monkeypox virus, UniProt A0A7H0DNC1)): 0.95 µM

CCC(C(=O)Nc1ccccc1C)n1cc(F)cc2nc(SCc3ccc(F)cc3)nc1-2 (stereo not shown)
IC50 (Replicase polyprotein 1ab, papain-like protease (rep, Middle East respiratory syndrome-related coronavirus, UniProt K9N7C7); enzyme activity, inhibitor): > 100 µM
